Measurements gathered from unrelated publications.

Compound = CN(C)CCN(Cc1ccccc1)C(=O)c1cc(-c2ccc(F)cc2)n2nc(C(C)(C)C)cc2n1; host = C57BL/6 mouse; sample = plasma; route = subcutaneous; dose = 35 mg/kg; notes = single dose; half-life = ~3.7 h
Compound = CCc1nn(C)c2nc(-c3ccc(C(=O)O)cc3)nc(NCc3ccccc3)c12; host = male CD-1 mouse; sample = plasma; route = intravenous; dose = 1 mg/kg; half-life = ~1 h
Compound = CCCC[C@@H]1NC(=O)[C@H](Cc2ccc(O)cc2)NC(=O)[C@@H]2CCCN2C(=O)[C@H](CC(=O)O)NC(=O)[C@H](C)NC(=O)[C@H](Cc2ccccc2)NC(=O)[C@@H]2CSCCC(=O)N3CN(CN(C3)C(=O)CCSC[C@@H](C(=O)N[C@@H](C)C(N)=O)NC1=O)C(=O)CCSC[C@H](NC(C)=O)C(=O)N[C@@H](CC(C)(C)C)C(=O)N1CCC[C@H]1C(=O)N[C@@H](CCC(=O)O)C(=O)N[C@H](CCCCNC(=O)CCc1cn(CCOCCOCCOCCN(CCOCCOCCOCCC(=O)N[C@H]3CSCCC(=O)N4CN5CN(C4)C(=O)CCSC[C@H](NC(=O)[C@@H](CC(=O)O)NC(=O)[C@H](Cc4cccc6ccccc46)NC(=O)[C@@H]4CCCN4C3=O)C(=O)N[C@@H](CCSC)C(=O)N[C@@H](CCCCNC(=N)N)C(=O)N[C@@H](CC(=O)O)C(=O)N[C@@H](Cc3c[nH]c4ccccc34)C(=O)N[C@@H](CO)C(=O)N[C@@H]([C@@H](C)O)C(=O)N3CCC[C@H]3C(=O)N3C[C@H](O)C[C@H]3C(=O)N[C@@H](Cc3c[nH]c4ccccc34)C(=O)N[C@H](C(N)=O)CSCCC5=O)CCOCCOCCOCCn3cc(CCC(=O)NCCCC[C@H]4NC(=O)[C@H](CCC(=O)O)NC(=O)[C@@H]5CCCN5C(=O)[C@H](CC(C)(C)C)NC(=O)[C@@H](NC(C)=O)CSCCC(=O)N5CN6CN(C5)C(=O)CCSC[C@H](NC(=O)[C@H](Cc5ccc(O)cc5)NC(=O)[C@@H]5CCCN5C4=O)C(=O)N[C@@H](Cc4ccccc4)C(=O)N[C@@H](C)C(=O)N[C@@H](CC(=O)O)C(=O)N4CCC[C@H]4C(=O)N[C@@H](Cc4ccc(O)cc4)C(=O)N[C@@H](CCCC)C(=O)N[C@H](C(=O)N[C@@H](C)C(N)=O)CSCCC6=O)nn3)nn1)C(=O)N1CCC[C@H]1C(=O)N[C@@H](Cc1ccc(O)cc1)C(=O)N2; host = mouse; sample = plasma; route = intravenous; dose = 30 mg/kg; half-life = ~2.3 h
Compound = O=c1cc(-c2ccccc2)oc2c(Br)c(O)c(O)c(O)c12; host = C57BL/6 mouse; sample = plasma; route = oral; dose = 250 mg/kg; notes = single dose; half-life = 5.5 h
Compound = O=C(CN1CCN(c2cc3c(cc2F)c(=O)c(C(=O)O)cn3C2CC2)CC1)Nc1ccc(Cl)cc1; host = mouse; sample = plasma; route = intravenous; dose = 3.75 mg/kg; half-life = 6.51 h
Compound = CC(C)[C@H](N)C(=O)N[C@H]1CSSC[C@@H](C(=O)N[C@H](C(N)=O)C(C)C)NC(=O)[C@H](Cc2c[nH]c3ccccc23)NC(=O)[C@H](CCCCN)NC(=O)[C@H](CCCCN)NC(=O)[C@H](Cc2c[nH]c3ccccc23)NC(=O)[C@H](CCCCN)NC(=O)[C@H](CCCNC(=N)N)NC(=O)[C@H](CCCCN)NC(=O)[C@H](Cc2c[nH]c3ccccc23)NC(=O)[C@H](CCCCN)NC(=O)[C@H](CCCCN)NC(=O)[C@H](Cc2c[nH]c3ccccc23)NC(=O)[C@H](CCCNC(=N)N)NC(=O)[C@H](CCCCN)NC1=O; host = male C57BL/6 mouse; sample = plasma; route = intravenous; dose = 8 mg/kg; half-life = 1.8 h
Compound = C[C@@](O)(C(F)F)[C@H](NC(=O)c1ccc(C#CC#CC2CC2)cc1)C(=O)NO; host = mouse; sample = plasma; route = intraperitoneal; dose = 40 mg/kg; half-life = 1.1 h
Compound = C/C(=N\OCCCN1CCCCC1)c1ccc(C(F)(F)F)cc1; host = mouse; sample = plasma; route = intravenous; dose = 5 mg/kg; half-life = 4.52 h
Compound = CCC[C@@H]1O[C@@H]2C[C@H]3[C@@H]4C[C@H](F)C5=CC(=O)CC[C@]5(C)[C@@]4(F)[C@@H](O)C[C@]3(C)[C@]2(C(=O)CO)O1; host = CD-1 mouse; sample = plasma; route = intravenous; half-life = ~0.333 h
Compound = COc1ccc(F)cc1S(=O)(=O)Nc1cnc2c(c1)C(=O)NCCO2; host = male C57BL/6 mouse; sample = plasma; route = oral; dose = 0.3 mg/kg; notes = single dose; half-life = 1.2 h
Compound = c1ccc(C2(CCNC3CCC4(SCCS4)c4ccccc43)CCOC3(CCCC3)C2)nc1 (centres unmarked); host = male CD-1 mouse; sample = plasma; route = intravenous; dose = 0.3 mg/kg; half-life = 0.78 h
Compound = CS(C)(=O)=Nc1ccc(-c2ccc(-c3nc4cc(O[C@@H]5CO[C@H]6[C@@H]5OC[C@H]6O)[nH]c4cc3F)cc2)cc1; host = female C57BL/6 mouse; sample = plasma; route = oral; dose = 10 mg/kg; half-life = 2.1 h
Compound = CCCCCCCC(=O)NC[C@H](NC(=O)[C@H](CO)NC(=O)CN)C(=O)N[C@@H](Cc1ccccc1)C(=O)N[C@@H](CC(C)C)C(=O)N[C@@H](CO)C(=O)N1CCC[C@H]1C(=O)N[C@@H](CCC(=O)O)C(=O)N[C@@H](Cc1c[nH]cn1)C(=O)N[C@@H](CCC(N)=O)C(=O)N[C@@H](CCCNC(=N)N)C(=O)N[C@H](C(=O)N[C@@H](CCC(N)=O)C(=O)N[C@H](C(=O)N[C@@H](CCCNC(=N)N)C(=O)N1CCC[C@H]1C(=O)N1CCC[C@H]1C(=O)N[C@@H](Cc1c[nH]cn1)C(=O)N[C@@H](CCCCN)C(=O)N[C@@H](C)C(=O)N1CCC[C@H]1C(=O)N[C@@H](Cc1c[nH]cn1)C(=O)N[C@H](C(=O)N[C@H](C(=O)O)C(C)C)C(C)C)C(C)C)C(C)C; host = mouse; sample = plasma; route = intraperitoneal; dose = 7.2 mg/kg; half-life = 0.198 h
Compound = CC(C)[C@H]1NC(=O)C[C@H]2/C=C/CCSSC[C@@H](NC1=O)C(=O)N[C@H](Cc1cccc3ccccc13)C(=O)NCC(=O)O2; host = nude mouse; sample = blood; route = intravenous; dose = 4 mg/kg; half-life = 0.3 h

Some of these lines once more:
Compound = CN(C)CCN(Cc1ccccc1)C(=O)c1cc(-c2ccc(F)cc2)n2nc(C(C)(C)C)cc2n1; host = C57BL/6 mouse; sample = plasma; route = subcutaneous; dose = 35 mg/kg; notes = single dose; half-life = ~3.7 h
Compound = O=C(CN1CCN(c2cc3c(cc2F)c(=O)c(C(=O)O)cn3C2CC2)CC1)Nc1ccc(Cl)cc1; host = mouse; sample = plasma; route = intravenous; dose = 3.75 mg/kg; half-life = 6.51 h
